{"data": "Measured values pooled from the literature", "note": "Every numbered part comes from another study and shows a few of its results, in no order.", "UniProt Q9Y243, sequence (whole entry, looked up)": "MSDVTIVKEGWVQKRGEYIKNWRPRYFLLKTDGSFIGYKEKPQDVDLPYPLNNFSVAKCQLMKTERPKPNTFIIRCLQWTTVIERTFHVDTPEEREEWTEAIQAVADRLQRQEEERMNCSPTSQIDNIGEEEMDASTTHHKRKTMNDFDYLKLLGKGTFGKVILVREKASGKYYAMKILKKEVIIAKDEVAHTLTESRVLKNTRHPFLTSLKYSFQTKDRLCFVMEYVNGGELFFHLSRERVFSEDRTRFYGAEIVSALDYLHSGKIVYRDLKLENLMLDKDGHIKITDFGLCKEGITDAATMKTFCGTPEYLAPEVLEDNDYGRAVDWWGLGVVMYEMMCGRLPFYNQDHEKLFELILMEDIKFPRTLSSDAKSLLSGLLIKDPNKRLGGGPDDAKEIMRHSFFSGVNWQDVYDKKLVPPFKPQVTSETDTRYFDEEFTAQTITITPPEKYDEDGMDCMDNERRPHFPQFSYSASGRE", "UniProt Q9Y3S1, sequence (whole entry, looked up)": "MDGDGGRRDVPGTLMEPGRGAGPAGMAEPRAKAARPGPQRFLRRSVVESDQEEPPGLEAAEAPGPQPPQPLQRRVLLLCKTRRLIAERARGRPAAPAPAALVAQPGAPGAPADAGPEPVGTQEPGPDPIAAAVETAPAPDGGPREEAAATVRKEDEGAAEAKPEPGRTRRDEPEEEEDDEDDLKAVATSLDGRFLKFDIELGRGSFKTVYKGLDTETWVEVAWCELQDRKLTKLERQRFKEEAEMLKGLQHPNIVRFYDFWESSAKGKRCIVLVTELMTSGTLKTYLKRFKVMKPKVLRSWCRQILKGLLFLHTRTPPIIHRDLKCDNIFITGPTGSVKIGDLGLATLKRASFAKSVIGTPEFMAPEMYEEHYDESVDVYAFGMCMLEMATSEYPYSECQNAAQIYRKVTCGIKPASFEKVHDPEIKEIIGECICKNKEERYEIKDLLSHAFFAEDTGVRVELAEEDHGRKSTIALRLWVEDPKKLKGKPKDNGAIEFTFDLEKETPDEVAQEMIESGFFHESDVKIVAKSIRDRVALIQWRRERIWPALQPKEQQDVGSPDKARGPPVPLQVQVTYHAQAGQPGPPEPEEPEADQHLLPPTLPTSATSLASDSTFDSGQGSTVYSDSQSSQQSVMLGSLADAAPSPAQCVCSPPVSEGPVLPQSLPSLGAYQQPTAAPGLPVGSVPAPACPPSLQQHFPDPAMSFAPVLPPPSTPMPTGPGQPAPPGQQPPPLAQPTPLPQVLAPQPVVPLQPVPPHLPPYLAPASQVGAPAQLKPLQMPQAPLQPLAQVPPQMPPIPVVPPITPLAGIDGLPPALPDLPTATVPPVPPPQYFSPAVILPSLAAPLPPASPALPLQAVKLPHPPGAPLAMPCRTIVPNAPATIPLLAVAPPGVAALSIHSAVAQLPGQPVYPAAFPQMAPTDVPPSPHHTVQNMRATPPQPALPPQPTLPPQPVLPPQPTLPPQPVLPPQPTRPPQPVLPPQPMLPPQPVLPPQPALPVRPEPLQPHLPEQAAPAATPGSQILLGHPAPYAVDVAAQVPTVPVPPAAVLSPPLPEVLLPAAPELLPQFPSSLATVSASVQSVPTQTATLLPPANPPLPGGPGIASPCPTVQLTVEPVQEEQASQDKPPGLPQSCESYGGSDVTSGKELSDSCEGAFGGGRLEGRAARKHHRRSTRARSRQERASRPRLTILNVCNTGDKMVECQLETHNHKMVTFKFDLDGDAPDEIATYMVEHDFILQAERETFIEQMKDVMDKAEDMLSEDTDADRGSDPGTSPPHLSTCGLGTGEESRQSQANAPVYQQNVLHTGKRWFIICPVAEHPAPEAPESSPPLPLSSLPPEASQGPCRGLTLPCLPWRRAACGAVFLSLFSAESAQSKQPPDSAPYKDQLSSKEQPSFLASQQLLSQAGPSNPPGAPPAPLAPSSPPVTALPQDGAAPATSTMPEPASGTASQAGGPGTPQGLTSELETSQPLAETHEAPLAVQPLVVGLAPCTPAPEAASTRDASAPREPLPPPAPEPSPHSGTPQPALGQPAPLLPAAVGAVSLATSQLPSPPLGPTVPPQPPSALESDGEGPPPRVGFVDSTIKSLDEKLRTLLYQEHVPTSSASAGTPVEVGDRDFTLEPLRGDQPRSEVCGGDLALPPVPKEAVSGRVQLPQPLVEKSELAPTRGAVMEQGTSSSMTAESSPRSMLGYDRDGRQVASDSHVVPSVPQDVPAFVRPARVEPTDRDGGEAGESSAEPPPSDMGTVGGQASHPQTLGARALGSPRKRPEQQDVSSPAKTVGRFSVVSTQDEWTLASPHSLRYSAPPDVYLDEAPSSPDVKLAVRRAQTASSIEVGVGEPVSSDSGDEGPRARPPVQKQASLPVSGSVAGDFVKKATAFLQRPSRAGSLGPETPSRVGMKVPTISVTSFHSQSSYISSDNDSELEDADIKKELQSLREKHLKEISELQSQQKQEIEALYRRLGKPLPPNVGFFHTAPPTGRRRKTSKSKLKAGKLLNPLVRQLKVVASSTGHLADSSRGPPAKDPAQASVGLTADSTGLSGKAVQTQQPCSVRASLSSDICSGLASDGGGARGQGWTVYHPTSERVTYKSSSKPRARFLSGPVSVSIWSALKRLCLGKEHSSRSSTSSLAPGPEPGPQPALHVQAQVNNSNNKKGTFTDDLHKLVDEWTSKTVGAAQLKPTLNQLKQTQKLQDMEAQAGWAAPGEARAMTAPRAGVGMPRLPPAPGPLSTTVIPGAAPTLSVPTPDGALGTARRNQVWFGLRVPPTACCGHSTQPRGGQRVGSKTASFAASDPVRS", "UniProt Q06187, sequence (whole entry, looked up)": "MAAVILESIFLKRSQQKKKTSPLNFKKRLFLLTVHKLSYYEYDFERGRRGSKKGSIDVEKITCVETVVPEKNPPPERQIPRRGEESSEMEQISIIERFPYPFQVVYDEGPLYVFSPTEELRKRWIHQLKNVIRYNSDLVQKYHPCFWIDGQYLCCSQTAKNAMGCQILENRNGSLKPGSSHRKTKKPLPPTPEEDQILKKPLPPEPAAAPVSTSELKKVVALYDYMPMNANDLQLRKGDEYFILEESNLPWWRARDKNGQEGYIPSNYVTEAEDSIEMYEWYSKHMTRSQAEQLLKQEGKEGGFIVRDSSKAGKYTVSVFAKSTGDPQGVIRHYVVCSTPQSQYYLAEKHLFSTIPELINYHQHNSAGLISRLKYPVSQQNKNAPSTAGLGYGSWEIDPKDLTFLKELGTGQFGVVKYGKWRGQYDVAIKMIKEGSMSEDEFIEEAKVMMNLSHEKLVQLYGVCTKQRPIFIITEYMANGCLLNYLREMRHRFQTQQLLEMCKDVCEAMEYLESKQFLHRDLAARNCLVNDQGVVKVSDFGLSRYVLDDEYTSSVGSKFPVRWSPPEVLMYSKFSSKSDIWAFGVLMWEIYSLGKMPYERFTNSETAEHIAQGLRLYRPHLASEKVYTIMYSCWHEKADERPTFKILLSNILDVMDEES", "UniProt Q9HBH9, sequence (whole entry, looked up)": "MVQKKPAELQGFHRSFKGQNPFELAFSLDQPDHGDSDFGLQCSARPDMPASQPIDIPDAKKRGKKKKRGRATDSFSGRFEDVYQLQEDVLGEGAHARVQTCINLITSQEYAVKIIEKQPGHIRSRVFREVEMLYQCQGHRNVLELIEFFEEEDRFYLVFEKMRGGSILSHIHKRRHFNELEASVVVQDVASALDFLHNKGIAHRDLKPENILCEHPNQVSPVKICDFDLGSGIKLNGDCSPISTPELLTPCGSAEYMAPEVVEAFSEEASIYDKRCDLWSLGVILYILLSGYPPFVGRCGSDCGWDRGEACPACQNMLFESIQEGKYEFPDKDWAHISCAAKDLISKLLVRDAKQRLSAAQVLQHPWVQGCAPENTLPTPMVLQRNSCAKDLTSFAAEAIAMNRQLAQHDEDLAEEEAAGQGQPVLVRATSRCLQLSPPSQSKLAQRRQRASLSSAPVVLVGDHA", "UniProt P50750, sequence (whole entry, looked up)": "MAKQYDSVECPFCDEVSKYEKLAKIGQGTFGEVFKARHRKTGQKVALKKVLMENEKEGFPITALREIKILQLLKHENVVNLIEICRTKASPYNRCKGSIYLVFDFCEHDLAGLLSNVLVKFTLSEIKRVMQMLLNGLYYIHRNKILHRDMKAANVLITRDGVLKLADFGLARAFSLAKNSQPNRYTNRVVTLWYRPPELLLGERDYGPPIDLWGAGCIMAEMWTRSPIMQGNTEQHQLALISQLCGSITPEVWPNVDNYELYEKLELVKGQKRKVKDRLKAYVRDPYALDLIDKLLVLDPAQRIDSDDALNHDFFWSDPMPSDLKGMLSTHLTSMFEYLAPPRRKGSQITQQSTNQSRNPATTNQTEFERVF", "UniProt Q00526, sequence (whole entry, looked up)": "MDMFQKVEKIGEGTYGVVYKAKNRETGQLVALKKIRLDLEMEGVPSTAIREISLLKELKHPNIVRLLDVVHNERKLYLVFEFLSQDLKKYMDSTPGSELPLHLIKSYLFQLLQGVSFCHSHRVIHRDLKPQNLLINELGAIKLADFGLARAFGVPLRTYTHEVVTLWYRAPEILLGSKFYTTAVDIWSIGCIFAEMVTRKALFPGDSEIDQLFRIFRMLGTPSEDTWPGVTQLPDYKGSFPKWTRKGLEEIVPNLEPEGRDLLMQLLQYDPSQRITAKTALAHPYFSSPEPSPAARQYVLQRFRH"}
{"data": "Set 1", "SMILES": "N#CC(=C(N)Sc1ccc(N)cc1)c1ccccc1C(F)(F)F", "observed": "enzyme activity", "action": "inhibitor", "concentration": "0.5 µM", "reference": "control"}
{"target": "PRKCI (Homo sapiens, UniProt P41743)", "remaining activity [%]": 102}
{"target": "MAP4K2 (Homo sapiens, UniProt Q12851)", "remaining activity [%]": 85.7}
{"target": "PLK2 (Homo sapiens, UniProt Q9NYY3)", "remaining activity [%]": 98.1}
{"target": "WNK2 (Homo sapiens, UniProt Q9Y3S1)", "remaining activity [%]": 109}
{"target": "EPHA5 (Homo sapiens, UniProt P54756)", "remaining activity [%]": 116}
{"target": "LYN (Homo sapiens, UniProt P07948)", "remaining activity [%]": 107}
{"target": "CSNK1A1 (Homo sapiens, UniProt P48729)", "remaining activity [%]": 82.9}
{"target": "PRKG1 (Homo sapiens, UniProt Q13976)", "remaining activity [%]": 98.8}
{"target": "MKNK2 (Homo sapiens, UniProt Q9HBH9)", "remaining activity [%]": 109}
{"target": "NEK4 (Homo sapiens, UniProt P51957)", "remaining activity [%]": 95.9}
{"target": "MAP2K6 (Homo sapiens, UniProt P52564)", "remaining activity [%]": 97.5}
{"target": "AKT3 (Homo sapiens, UniProt Q9Y243)", "remaining activity [%]": 96.2}
{"target": "Cyclin-dependent kinase 9, with cyclin T1 (CDK9, Homo sapiens, UniProt P50750)", "remaining activity [%]": 97.7}
{"target": "PRKCD (Homo sapiens, UniProt Q05655)", "remaining activity [%]": 97.5}
{"target": "CHEK1 (Homo sapiens, UniProt O14757)", "remaining activity [%]": 97.5}
{"target": "STK38 (Homo sapiens, UniProt Q15208)", "remaining activity [%]": 93.1}
{"target": "CSNK2A1 (Homo sapiens, UniProt P68400)", "remaining activity [%]": 97.9}
{"target": "KIT (Homo sapiens, UniProt P10721)", "remaining activity [%]": 91.8}
{"target": "IRAK4 (Homo sapiens, UniProt Q9NWZ3)", "remaining activity [%]": 89.8}
{"target": "LRRK2 (Homo sapiens, UniProt Q5S007)", "remaining activity [%]": 100}
{"target": "MAP3K10 (Homo sapiens, UniProt Q02779)", "remaining activity [%]": 88.1}
{"target": "BTK (Homo sapiens, UniProt Q06187)", "remaining activity [%]": 93.5}
{"target": "MAPK13 (Homo sapiens, UniProt O15264)", "remaining activity [%]": 104}
{"target": "MAPK12 (Homo sapiens, UniProt P53778)", "remaining activity [%]": 97.4}
{"data": "Set 2", "species": "mouse", "sample": "microsomes or S9", "concentration": "2 µM", "time": "0.5 h"}
{"SMILES": "Cc1nc(-c2ccc3c(c2)CCN3C(=O)Cc2c[nH]c3ccccc23)cs1", "remaining compound [%]": 13.8}
{"SMILES": "Cc1cccc2c(O)c3nc(C)n(-c4ccccc4)c3nc12", "remaining compound [%]": 55.2}
{"SMILES": "COc1ccc2c3c1O[C@H]1C[C@@H](O)C=C[C@]31C[C@H](C)N(Cc1ccc(Br)cc1)C2", "remaining compound [%]": 47}
{"SMILES": "Brc1ccc2ccnc(N3CCCC3)c2c1", "remaining compound [%]": 0.162}
{"SMILES": "COCCc1noc(CN2CC[C@H]3[C@H](C2)OCc2cnnn23)n1", "remaining compound [%]": 96.9}
{"SMILES": "O=C1C=C(O)CC(c2ccc(Cl)c(Cl)c2)C1 (stereo not drawn)", "remaining compound [%]": 0}
{"SMILES": "Clc1ccc(Cc2nc3c4cn[nH]c4ncn3n2)cc1", "remaining compound [%]": 11.7}
{"SMILES": "CC(=O)c1[nH]c(C)c(C(=O)N[C@H]2C[C@@H](c3nnc(CO)n3C)C2)c1C", "remaining compound [%]": 86.3}
{"SMILES": "O=C1c2ccccc2C2CC(c3ccc(-c4ccccc4)cc3)=NN12 (stereo not drawn)", "remaining compound [%]": 39.8}
{"SMILES": "COc1cc(OC)c(OC)c(C(c2sc3nc(C)nn3c2O)N2CCN(C)CC2)c1 (stereo not drawn)", "remaining compound [%]": "> 100"}
{"SMILES": "CC(C)Cn1c(C(C)C)nnc1N1C[C@@H]2CCS(=O)(=O)[C@@H]2C1", "remaining compound [%]": 73.5}
{"SMILES": "Cc1cc(NC(=O)NC(CCN(C)C)C(C)(C)C)n(C(C)(C)C)n1 (stereo not drawn)", "remaining compound [%]": 91.7}
{"data": "Set 3", "target": "Calcium/calmodulin-dependent protein kinase type II subunit alpha (CAMK2A, Homo sapiens, UniProt Q9UQM7)", "observed": "enzyme activity", "action": "inhibitor", "concentration": "10 µM", "UniProt Q9UQM7, sequence (whole entry, looked up)": "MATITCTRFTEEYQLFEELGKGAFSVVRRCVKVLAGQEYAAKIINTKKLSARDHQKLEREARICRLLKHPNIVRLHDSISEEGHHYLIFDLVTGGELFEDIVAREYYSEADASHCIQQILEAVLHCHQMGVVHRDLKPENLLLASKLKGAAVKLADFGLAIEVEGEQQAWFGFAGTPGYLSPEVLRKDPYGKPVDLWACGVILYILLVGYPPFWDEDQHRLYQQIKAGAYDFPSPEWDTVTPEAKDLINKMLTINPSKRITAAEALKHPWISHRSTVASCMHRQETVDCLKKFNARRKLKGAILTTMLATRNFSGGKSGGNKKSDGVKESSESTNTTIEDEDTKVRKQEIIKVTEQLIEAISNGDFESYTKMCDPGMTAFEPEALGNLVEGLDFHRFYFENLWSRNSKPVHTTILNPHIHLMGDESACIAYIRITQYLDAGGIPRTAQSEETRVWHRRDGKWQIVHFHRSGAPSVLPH"}
{"Compound": "CC(C)=CC[C@H](OC(=O)C=C(C)C)C1=CC(=O)c2c(O)ccc(O)c2C1=O", "inhibition [%]": 4}
{"Compound": "COC(=O)c1cc(OC)c2c(c1-c1c(CO)cc(OC)c3c1OCO3)OCO2", "inhibition [%]": 4}
{"Compound": "O=c1[nH]cc(F)c(=O)[nH]1", "inhibition [%]": -10}
{"Compound": "CC1(C)C[C@@H](O)[C@]2(C)CC[C@]3(C)C(=CC[C@@H]4[C@@]5(C)CC[C@H](O)[C@](C)(CO)[C@@H]5CC[C@]43C)[C@@H]2C1", "inhibition [%]": 3}
{"Compound": "C/C=C(/C)C(=O)O[C@H]1c2cc(OC)c(OC)c(OC)c2-c2c(cc3c(c2OC)OCO3)C[C@H](C)[C@]1(C)O", "inhibition [%]": 18}
{"Compound": "C[C@H]1O[C@@H](O[C@H]2CC[C@@]3(C)[C@@H](CC[C@]4(C)[C@@H]3C=C[C@]35OC[C@@]6(CCC(C)(C)C[C@H]63)[C@H](O)C[C@]54C)[C@]2(C)CO)[C@H](O)[C@@H](O[C@@H]2O[C@H](CO)[C@@H](O)[C@H](O)[C@H]2O)[C@H]1O", "inhibition [%]": -4}
{"Compound": "O=C(O)/C=C\\c1ccc2occc2c1O[C@@H]1O[C@H](CO)[C@@H](O)[C@H](O)[C@H]1O", "inhibition [%]": -8}
{"Compound": "C=C1C(=O)O[C@@H]2/C=C(/C)C[C@H]3C=C(C[C@H](OC(=O)/C(C)=C\\C)[C@@H]12)C(=O)O3", "inhibition [%]": 12}
{"data": "Set 4", "SMILES": "O=C(O)c1cc(-c2ccc(C3CCNCC3)cc2)c2ccc(-c3ccc(C(F)(F)F)cc3)cc2c1", "observed": "cell-free assay", "technique": "competition with immobilised ligand", "concentration": "1 µM"}
{"target": "CDK3 (Homo sapiens, UniProt Q00526)", "remaining binding": "100%"}
{"target": "PRKD2 (Homo sapiens, UniProt Q9BZL6)", "remaining binding": "100%"}
{"target": "CASK (Homo sapiens, UniProt O14936)", "remaining binding": "100%"}
{"target": "GRK7 (Homo sapiens, UniProt Q8WTQ7)", "remaining binding": "85%"}
{"target": "COQ8B (Homo sapiens, UniProt Q96D53)", "remaining binding": "100%"}
{"target": "GRK3 (Homo sapiens, UniProt P35626)", "remaining binding": "68%"}
{"target": "Ribosomal protein S6 kinase alpha-1, C-terminal kinase domain (RPS6KA1, Homo sapiens, UniProt Q15418)", "remaining binding": "100%"}
{"target": "BTK (Homo sapiens, UniProt Q06187)", "remaining binding": "96%"}
{"target": "MAST1 (Homo sapiens, UniProt Q9Y2H9)", "remaining binding": "100%"}
{"target": "AKT3 (Homo sapiens, UniProt Q9Y243)", "remaining binding": "100%"}
{"target": "WNK2 (Homo sapiens, UniProt Q9Y3S1)", "remaining binding": "100%"}
{"target": "STK25 (Homo sapiens, UniProt O00506)", "remaining binding": "100%"}
{"target": "ERBB2 (Homo sapiens, UniProt P04626)", "remaining binding": "100%"}
{"target": "Tyrosine-protein kinase ABL1, phosphorylated (ABL1, Homo sapiens, UniProt P00519, T315I)", "remaining binding": "100%"}
{"target": "TSSK3 (Homo sapiens, UniProt Q96PN8)", "remaining binding": "100%"}
{"target": "MAPK7 (Homo sapiens, UniProt Q13164)", "remaining binding": "100%"}
{"target": "MAPK9 (Homo sapiens, UniProt P45984)", "remaining binding": "100%"}
{"target": "MARK3 (Homo sapiens, UniProt P27448)", "remaining binding": "100%"}
{"target": "RIOK2 (Homo sapiens, UniProt Q9BVS4)", "remaining binding": "100%"}
